# Experimental data pooled from the literature.
# “And” joins repeats or separate records; there may be more than shown. ± marks the error that the study gave.
# UniProt P53355, sequence (whole entry, looked up): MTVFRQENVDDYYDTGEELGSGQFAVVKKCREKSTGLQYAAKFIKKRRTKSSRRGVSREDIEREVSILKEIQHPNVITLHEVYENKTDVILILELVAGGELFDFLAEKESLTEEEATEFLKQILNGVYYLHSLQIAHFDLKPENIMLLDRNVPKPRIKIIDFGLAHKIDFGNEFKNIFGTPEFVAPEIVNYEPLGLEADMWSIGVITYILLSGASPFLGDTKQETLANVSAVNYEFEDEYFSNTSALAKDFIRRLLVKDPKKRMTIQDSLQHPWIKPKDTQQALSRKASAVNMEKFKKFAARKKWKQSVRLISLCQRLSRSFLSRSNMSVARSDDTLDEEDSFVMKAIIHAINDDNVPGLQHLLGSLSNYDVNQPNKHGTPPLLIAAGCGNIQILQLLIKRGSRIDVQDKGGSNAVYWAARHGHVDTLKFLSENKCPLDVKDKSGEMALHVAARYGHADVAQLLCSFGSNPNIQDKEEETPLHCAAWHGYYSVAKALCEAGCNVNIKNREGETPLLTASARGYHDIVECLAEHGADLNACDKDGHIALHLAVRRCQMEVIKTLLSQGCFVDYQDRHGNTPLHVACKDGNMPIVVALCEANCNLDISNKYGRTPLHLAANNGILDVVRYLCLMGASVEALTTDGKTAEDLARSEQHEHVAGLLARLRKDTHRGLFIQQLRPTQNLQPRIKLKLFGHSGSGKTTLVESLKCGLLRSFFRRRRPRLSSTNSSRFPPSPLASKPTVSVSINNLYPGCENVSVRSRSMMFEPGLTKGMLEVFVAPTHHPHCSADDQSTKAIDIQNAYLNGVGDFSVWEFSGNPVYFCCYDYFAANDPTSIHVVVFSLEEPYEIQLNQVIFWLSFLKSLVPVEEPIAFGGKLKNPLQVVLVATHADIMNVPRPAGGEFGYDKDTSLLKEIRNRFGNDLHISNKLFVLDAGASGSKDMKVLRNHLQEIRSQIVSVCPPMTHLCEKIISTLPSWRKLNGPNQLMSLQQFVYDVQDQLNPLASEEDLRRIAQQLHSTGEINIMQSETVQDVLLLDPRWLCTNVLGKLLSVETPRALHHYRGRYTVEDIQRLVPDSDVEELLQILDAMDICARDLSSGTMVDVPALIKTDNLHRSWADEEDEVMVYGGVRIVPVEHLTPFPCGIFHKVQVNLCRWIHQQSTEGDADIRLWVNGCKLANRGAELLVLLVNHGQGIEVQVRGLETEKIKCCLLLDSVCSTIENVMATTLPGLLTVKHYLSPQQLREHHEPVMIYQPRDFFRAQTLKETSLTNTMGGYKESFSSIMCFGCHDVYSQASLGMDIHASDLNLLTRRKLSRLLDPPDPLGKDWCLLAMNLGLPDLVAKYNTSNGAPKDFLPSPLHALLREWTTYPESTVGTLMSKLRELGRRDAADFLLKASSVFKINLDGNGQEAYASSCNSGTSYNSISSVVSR
# UniProt Q15349, sequence (whole entry, looked up): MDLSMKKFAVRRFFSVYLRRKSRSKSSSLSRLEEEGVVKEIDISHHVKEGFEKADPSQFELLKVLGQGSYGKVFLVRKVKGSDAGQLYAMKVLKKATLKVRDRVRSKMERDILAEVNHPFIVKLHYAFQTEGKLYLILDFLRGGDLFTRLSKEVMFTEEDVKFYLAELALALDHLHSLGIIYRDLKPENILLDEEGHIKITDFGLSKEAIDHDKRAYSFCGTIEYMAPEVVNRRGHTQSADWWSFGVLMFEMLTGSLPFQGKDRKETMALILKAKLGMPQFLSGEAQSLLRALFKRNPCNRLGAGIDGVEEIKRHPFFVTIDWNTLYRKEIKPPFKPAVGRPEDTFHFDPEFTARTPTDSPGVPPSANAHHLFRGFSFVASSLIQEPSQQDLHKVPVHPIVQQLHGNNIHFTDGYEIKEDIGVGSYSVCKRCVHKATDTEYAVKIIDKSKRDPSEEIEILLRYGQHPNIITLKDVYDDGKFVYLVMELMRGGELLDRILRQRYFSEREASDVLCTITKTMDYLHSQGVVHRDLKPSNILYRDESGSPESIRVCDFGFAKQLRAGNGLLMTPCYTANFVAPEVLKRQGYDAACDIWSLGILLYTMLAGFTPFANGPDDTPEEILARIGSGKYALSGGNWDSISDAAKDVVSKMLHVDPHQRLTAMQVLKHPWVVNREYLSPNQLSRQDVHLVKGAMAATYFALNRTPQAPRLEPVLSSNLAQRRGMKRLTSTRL
# UniProt P37023, sequence (whole entry, looked up): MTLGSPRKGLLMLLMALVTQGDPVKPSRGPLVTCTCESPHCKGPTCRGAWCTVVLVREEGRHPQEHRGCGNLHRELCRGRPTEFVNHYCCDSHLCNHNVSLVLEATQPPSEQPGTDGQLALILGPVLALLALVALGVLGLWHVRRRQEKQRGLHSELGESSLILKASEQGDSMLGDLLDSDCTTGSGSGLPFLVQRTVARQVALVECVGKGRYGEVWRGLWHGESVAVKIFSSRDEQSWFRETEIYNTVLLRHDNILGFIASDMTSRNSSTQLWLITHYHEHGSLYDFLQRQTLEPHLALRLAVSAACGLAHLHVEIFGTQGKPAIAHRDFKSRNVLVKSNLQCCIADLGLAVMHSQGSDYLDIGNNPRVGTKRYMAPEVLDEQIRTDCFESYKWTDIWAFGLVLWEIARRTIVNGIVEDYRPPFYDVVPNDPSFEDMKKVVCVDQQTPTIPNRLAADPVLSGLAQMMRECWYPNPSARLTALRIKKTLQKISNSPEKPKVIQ
Compound,tested on,assay,system,setting,scale,measurement,value
CC(C)CC(O)(CC(C)C)c1cn(C(=O)N2CCCC2)nn1,mouse T-cells,"protein abundance, unenriched SILAC proteomics, measured: Niban",,"1 nM, 6 h, single tryptic peptide",baseline: DMSO,SILAC ratio,1.13 and 1.07
O=C(C[Se]C(=O)c1ccccc1)Nc1cccc(C(F)(F)F)c1,NCI60 melanoma subpanel,cell growth,,"10 µM, 48 h, one-dose",,mean growth percent,-56.5%
CC[C@H](C)[C@H](NC(=O)[C@H](C)NC(=O)CNC(=O)[C@H](Cc1ccccc1)NC(=O)[C@H](CC(N)=O)NC(=O)[C@H](CC(N)=O)NC(=O)[C@H](CO[C@@H]1O[C@H](CO)[C@@H](O)[C@H](O)[C@H]1NC(C)=O)NC(=O)[C@H](CO)NC(=O)[C@H](Cc1c[nH]cn1)NC(=O)[C@@H](NC(=O)[C@H](CC(C)C)NC(=O)[C@H](Cc1ccccc1)NC(=O)[C@H](CC(N)=O)NC(=O)[C@H](C)NC(=O)[C@@H](N)CC(C)C)C(C)C)C(=O)N[C@@H](CC(C)C)C(N)=O,INS-1,MTT,,"5 equivalents to hIAPP, 24 h, added: hIAPP 1 µM",,viability,73%
CC(C)C[C@@H](/C=C/[C@H](Cc1ccccc1)C(=O)N1CCC[C@H]1C(=O)N[C@H](C(=O)N[C@@H](CCCNC(=O)OCc1ccccc1)C(=O)NC1CC(C)(C)N([O])C(C)(C)C1)C(C)C)NC(=O)OC(C)(C)C,PANC-1,"protection from ferroptosis, PrestoBlue",,"24 h, added: erastin 10 µM",,EC50,0.089 µM
N=C(N)NCCC[C@H](NC(=O)CNC(=O)[C@@H](N)Cc1ccc(O)cc1)C(=O)N[C@@H](CCCCN)C(=O)N[C@@H](CCCCN)C(=O)N[C@@H](CCCNC(=N)N)C(=O)N[C@@H](CCCNC(=N)N)C(=O)N[C@@H](CCC(N)=O)C(=O)N[C@@H](CCCNC(=N)N)C(=O)N[C@@H](CCCNC(=N)N)C(=O)N[C@@H](CCCNC(=N)N)C(=O)N[C@@H](CS)C(N)=O,human red blood cells,,,pH 5.5,baseline: Triton X-100,EC50,> 100 µM
O=C(C[Se]C(=O)c1ccc2ccccc2c1)Nc1cccc(C(F)(F)F)c1,NCI60 melanoma subpanel,"cytotoxicity, inhibitor",,five-dose,,CC50,6.57 µM
CN(C)[C@H]1C[C@@]23CC[C@@]4(O2)C(=CC[C@]2(C)[C@@H](c5ccc6ccncc6c5)CC[C@H]24)C=C3[C@@H](O)[C@@H]1O,"Ribosomal protein S6 kinase alpha-2, kinase domain 1 (RPS6KA2, Homo sapiens, UniProt Q15349)","ATP probe labelling, inhibitor, KiNativ profiling",,1 µM,,inhibition,3.4%
NC(=S)N/N=C/c1ccc(OCc2ccccc2)cc1,IMR-32,measured: GPX3,,"400 µg/mL, 24 h",higher = more activity,glutathione peroxidase activity (OD450),0.157 a.u.
CC(C)C[C@H](NC(=O)[C@H](CC(=O)O)NC(=O)CNC(=O)[C@@H](N)CCCNC(=N)N)C(=O)N[C@@H](C)C(=O)N[C@H](C(=O)N[C@@H](CC(C)C)C(=O)N[C@@H](CCCNC(=N)N)C(=O)N[C@@H](CCC(N)=O)C(=O)N[C@@H](CC(C)C)C(=O)N[C@@H](C)C(=O)N[C@@H](CCC(N)=O)C(=O)N[C@@H](CCC(=O)O)C(=O)N[C@@H](CC(=O)O)C(=O)NCC(=O)N[C@H](C(=O)N[C@H](C(=O)NCC(=O)N[C@H](C(=O)N[C@@H](CCCNC(=N)N)C(=O)NCCOCCOCCOCCOCCOCCOCCOCCOCCOCCOCCOCCOCCC(=O)N[C@@H](CS)C(N)=O)C(C)C)C(C)C)C(C)C)[C@@H](C)O,H2122 lung adenocarcinoma,"cell binding, phage binding, measured: output/input phage",,"10 min, 37 °C",baseline: control phage,selectivity ratio,48 ± 6
CC(C)C12OC1C1OC13C1(C)CCC4=C(COC4=O)C1CC1OC13C2OC(=O)CCC(=O)OC1OC(CO)C(O)C(O)C1O (centres unmarked),Detroit 562,"cell growth or viability, XTT",,47 h,,IC50,1.42 µM
COc1ccccc1-c1ccncc1C(=O)Nc1nnc(OCc2ccc(Cl)cc2)s1,DLD-1 BRCA2-/-,,,"8 µM, single replicate",baseline: untreated,colony survival,9.09% and 8.62% and 8.45%
CC(C)(C)C(=O)OCOP(=O)(OCOC(=O)C(C)(C)C)C1CCCN(O)C1=O (centres unmarked),EKVX,,,,,GI50,0.657 µM
CS(C)(=O)=Nc1ccc(-c2ccc(-c3nc4cc(O[C@@H]5CO[C@H]6[C@@H]5OC[C@H]6O)[nH]c4cc3F)cc2)cc1,"Activin receptor type-1-like (ACVRL1, Homo sapiens, UniProt P37023)","enzyme activity, inhibitor",,10 µM,,inhibition,0%
C[C@@H](Cc1ccc(O)c(O)c1)[C@@H](C)Cc1ccc(O)c(O)c1,"THP-1, PMA-differentiated",,,"10 µM, 24 h, added: LPS 1 µg/mL",baseline: LPS model,IL-6 mRNA level,decreased
CC(C)[C@H](NC(=O)[C@H](CCCNC(=N)N)NC(=O)[C@@H]1CCCN1C(=O)[C@@H](NC(=O)[C@H](C)NC(=O)[C@H](Cc1ccc(O)cc1)NC(=O)[C@H](CCC(N)=O)NC(=O)[C@H](CCCCN)NC(=O)[C@H](CCCNC(=N)N)NC(=O)[C@@H]1CCCN1C(=O)[C@H](CCC(=O)O)NC(=O)[C@@H](NC(=O)[C@H](C)N)[C@@H](C)O)[C@@H](C)O)C(=O)N[C@@H](Cc1ccccc1)C(=O)N[C@@H](Cc1c[nH]c2ccccc12)C(=O)N[C@H](C(=O)N[C@@H](CC(=O)O)C(=O)N[C@@H](C)C(=O)N1CCC[C@H]1C(=O)NCC(=O)NCCOCCOCCOCCOCCOCCOCCOCCOCCOCCOCCOCCOCCC(=O)N[C@@H](CS)C(N)=O)[C@@H](C)O,Calu-3,phage binding,,,baseline: targeting over control phage,selectivity ratio,0.73 ± 0.11
O=C(O)c1ccc(-c2nc(-c3ccccc3Cl)c3sccn23)cc1,HEL,flow cytometry,,0.01 mM,,CD71-positive cells,76.6%
CC(=O)NCSC[C@H](NC(=O)[C@@H]1CCCN1C(=O)[C@H](C)NC(=O)[C@@H](NC(=O)CNC(=O)[C@@H](NC(=O)[C@H](Cc1c[nH]c2ccccc12)NC(=O)[C@H](C)NC(=O)CNC(=O)[C@H](CO)NC(=O)[C@H](C)NC(=O)[C@@H]1CCCN1C(=O)[C@H](Cc1c[nH]c2ccccc12)NC(=O)[C@H](C)NC(=O)[C@H](C)NC(=O)[C@@H](N)Cc1ccc(O)cc1)[C@@H](C)O)[C@@H](C)O)C(=O)N[C@@H](CO)C(=O)N[C@@H](C)C(=O)NCC(=O)N[C@H](C(=O)NCCOCCOCCOCCOCCOCCOCCOCCOCCOCCOCCOCCOCCC(=O)N[C@@H](CS)C(N)=O)[C@@H](C)O,H2126 lung adenocarcinoma,"cell binding, phage binding, measured: output/input phage",,"10 min, 37 °C",baseline: control phage,selectivity ratio,11 ± 5.8
O=C(C[Se]C(=O)c1ccc2ccccc2n1)Nc1cccc(C(F)(F)F)c1,NCI60 leukaemia subpanel,NCI60 five-dose screen,,,,CC50,10.5 µM
COc1ccccc1-c1n[nH]c2nc(N[C@H]3CC[C@H](NS(=O)(=O)CC(C)C)CC3)ncc12,,"bead binding, competition bead pull-down, measured: LINJ.26.2240",Leishmania donovani extract,10 µM,baseline: vehicle,relative abundance,0.98
CSCC[C@H](NC(=O)[C@@H](NC(=O)[C@H](CCC(N)=O)NC(=O)[C@H](CO)NC(=O)[C@@H](N)C(C)C)[C@@H](C)O)C(=O)N[C@@H](CCCNC(=N)N)C(=O)N[C@@H](CCC(N)=O)C(=O)N[C@H](C(=O)N[C@@H](C)C(=O)N[C@H](C(=O)N1CCC[C@H]1C(=O)N[C@@H](CC(C)C)C(=O)N[C@@H](CC(C)C)C(=O)N[C@@H](Cc1c[nH]c2ccccc12)C(=O)N[C@@H](Cc1ccccc1)C(=O)N[C@@H](Cc1c[nH]c2ccccc12)C(=O)N[C@H](C(=O)NCC(=O)N[C@@H](CO)C(=O)N[C@@H](CC(C)C)C(=O)NCCOCCOCCOCCOCCOCCOCCOCCOCCOCCOCCOCCOCCC(=O)N[C@@H](CS)C(N)=O)[C@@H](C)O)C(C)C)[C@@H](C)O,SKOV3 ovarian cancer,"cell binding, phage binding, measured: output/input phage",,"10 min, 37 °C",baseline: control phage,selectivity ratio,2 ± 0.59
CSCC[C@H](NC(=O)CNC(=O)[C@H](CCSC)NC(=O)[C@H](CS)NC(=O)[C@@H](N)CS)C(=O)N[C@@H](CS)C(=O)NCC(=O)N[C@@H](CCCCN)C(=O)O,RAW264.7,"Western blot, measured: NF-κB over β-actin",,"0.1 and 1 µg/mL, added: LPS",,NF-κB level,decreased
COc1ccccc1-c1n[nH]c2nc(NC3CCN(C(=O)Cc4ccc(F)cc4F)CC3)ncc12,,"bead binding, competition bead pull-down, measured: LMJF.27.0930",Leishmania donovani extract,10 µM,baseline: vehicle,relative abundance,1.16
Cc1cc(C(=O)Nc2nc3cccc(C)c3n2[C@H]2CCCCN(C(=O)/C=C/CN(C)C)C2)ccn1,Trypanosoma brucei,propidium iodide flow cytometry,bloodstream form,"concentration not given, 8 h",,cells in G2 phase,35.2%
CC(C)[C@H]1NC(=O)C[C@H]2/C=C/CCSSC[C@@H](NC1=O)C(=O)N[C@H](Cc1cccc3ccccc13)C(=O)NCC(=O)O2,"Death-associated protein kinase 1 (DAPK1, Homo sapiens, UniProt P53355)","enzyme activity, inhibitor",,10 µM,,inhibition,0.8%
O=C(C[Se]C(=O)c1ccco1)Nc1cccc(C(F)(F)F)c1,NCI60 melanoma subpanel,"total growth inhibition, inhibitor",,five-dose,,mean TGI,10.3 µM
CNC(=S)N/N=C/c1ccc(OCc2ccccc2)cc1,IMR-32,,,"100 µg/mL, 24 h",higher = more activity,catalase activity (OD450),0.029 a.u.
CC1CCC2C(C)C(OC(=O)CCC(=O)N3CCC(Nc4ccc(S(=O)(=O)NC(=O)c5ccc(N6CCN(CC7=C(c8ccc(Cl)cc8)CC(C)(C)CC7)CC6)cc5Oc5cnc6[nH]ccc6c5)cc4[N+](=O)[O-])CC3)OC3OC4(C)CCC1C32OO4 (centres unmarked),K562,"annexin V/PI flow cytometry, measured: annexin V+/PI+",,"3.2 µM, 24 h",,late apoptotic cells,2.4%
O=C(C[Se]C(=O)c1cccs1)Nc1cccc(C(F)(F)F)c1,NCI60 leukaemia subpanel,NCI60 five-dose screen,,,,GI50,2.81 µM
CCCCCCCCCCCCCC(=O)N[C@@H](CCCNC(=N)N)C(=O)N[C@@H](Cc1c[nH]c2ccccc12)C(=O)N[C@@H](CCCCN)C(=O)N[C@H](C(=O)N[C@@H](Cc1ccccc1)C(=O)N[C@@H](CCCCN)C(=O)N[C@@H](CCCCN)C(=O)N[C@H](C(=O)N[C@@H](CCC(=O)O)C(=O)N[C@@H](CCCCN)C(=O)N[C@H](C(=O)NCC(=O)N[C@@H](CCC(N)=O)C(=O)N[C@@H](CC(N)=O)C(=O)N[C@H](C(=O)N[C@@H](CCCNC(=N)N)C(=O)N[C@@H](CC(=O)O)C(=O)NCC(=O)N[C@H](C(=O)N[C@H](C(=O)N[C@@H](CCCCN)C(=O)N[C@@H](C)C(=O)NCC(=O)N1CCC[C@H]1C(=O)N[C@@H](C)C(=O)N[C@H](C(=O)N[C@@H](C)C(=O)N[C@H](C(=O)N[C@H](C(=O)NCC(=O)N[C@@H](CCC(N)=O)C(=O)N[C@@H](C)C(=O)N[C@@H](C)C(=O)N[C@H](C(=O)N[C@H](C(N)=O)[C@@H](C)CC)[C@@H](C)O)C(C)C)C(C)C)C(C)C)C(C)C)[C@@H](C)CC)[C@@H](C)CC)C(C)C)[C@@H](C)CC)[C@@H](C)CC,MX1,trypan blue exclusion,,"6 µM, 24 h",,dead cells,> 80%
O=C1NC2(CC2)COc2ncc(F)cc2[C@H]2COCCN2c2ccn3ncc1c3n2,,,"Sprague-Dawley rat, male, serum","oral, 20 mg/kg/day, end of recovery, 4-week subacute toxicity",,serum LDH activity,1024 ± 212 U/L
CC[C@H](C)[C@H](NC(=O)[C@H](CO)NC(=O)[C@H](Cc1ccc(O)cc1)NC(=O)[C@H](Cc1ccc(O)cc1)NC(=O)[C@H](CC(N)=O)NC(=O)CNC(=O)[C@H](CO)NC(=O)[C@H](Cc1ccc(O)cc1)NC(=O)[C@H](CO)NC(=O)[C@H](CO)NC(=O)[C@H](CC(N)=O)NC(=O)COCCOCCNC(=O)CN1CCN(CC(=O)O)CCN(CC(=O)O)CCN(CC(=O)O)CC1)C(=O)N[C@@H](CC(C)C)C(N)=O [copper-64 labelled],,dynamic PET,"mouse, tamoxifen-induced PDAC, blood","intravenous, 0.1 µg/mouse, 2.5 min",,tumour uptake,18.4 %ID/mL
Cc1cc(Oc2nc(N3CC[C@@H](c4ccncc4)C3)ncc2F)[nH]n1,JAR,cell proliferation,,,,IC50,33.1 µM

# A few entries again:
Compound,tested on,assay,system,setting,scale,measurement,value
CC(C)C[C@H](NC(=O)[C@H](CC(=O)O)NC(=O)CNC(=O)[C@@H](N)CCCNC(=N)N)C(=O)N[C@@H](C)C(=O)N[C@H](C(=O)N[C@@H](CC(C)C)C(=O)N[C@@H](CCCNC(=N)N)C(=O)N[C@@H](CCC(N)=O)C(=O)N[C@@H](CC(C)C)C(=O)N[C@@H](C)C(=O)N[C@@H](CCC(N)=O)C(=O)N[C@@H](CCC(=O)O)C(=O)N[C@@H](CC(=O)O)C(=O)NCC(=O)N[C@H](C(=O)N[C@H](C(=O)NCC(=O)N[C@H](C(=O)N[C@@H](CCCNC(=N)N)C(=O)NCCOCCOCCOCCOCCOCCOCCOCCOCCOCCOCCOCCOCCC(=O)N[C@@H](CS)C(N)=O)C(C)C)C(C)C)C(C)C)[C@@H](C)O,H2122 lung adenocarcinoma,"cell binding, phage binding, measured: output/input phage",,"10 min, 37 °C",baseline: control phage,selectivity ratio,48 ± 6
CC(C)C12OC1C1OC13C1(C)CCC4=C(COC4=O)C1CC1OC13C2OC(=O)CCC(=O)OC1OC(CO)C(O)C(O)C1O (centres unmarked),Detroit 562,"cell growth or viability, XTT",,47 h,,IC50,1.42 µM
COc1ccccc1-c1ccncc1C(=O)Nc1nnc(OCc2ccc(Cl)cc2)s1,DLD-1 BRCA2-/-,,,"8 µM, single replicate",baseline: untreated,colony survival,9.09% and 8.62% and 8.45%
CC(C)(C)C(=O)OCOP(=O)(OCOC(=O)C(C)(C)C)C1CCCN(O)C1=O (centres unmarked),EKVX,,,,,GI50,0.657 µM
CS(C)(=O)=Nc1ccc(-c2ccc(-c3nc4cc(O[C@@H]5CO[C@H]6[C@@H]5OC[C@H]6O)[nH]c4cc3F)cc2)cc1,"Activin receptor type-1-like (ACVRL1, Homo sapiens, UniProt P37023)","enzyme activity, inhibitor",,10 µM,,inhibition,0%
